{"data": "Measured values from different studies", "Sodium- and chloride-dependent glycine transporter 2": "Sodium- and chloride-dependent glycine transporter 2 (Homo sapiens, UniProt Q9Y345)", "GAP50": "Glideosome-associated protein 50 (GAP50, Plasmodium falciparum, UniProt Q8I2X3)", "Gria1/Gria2": "Glutamate receptor AMPA 1/2 (Gria1/Gria2, Rattus norvegicus, UniProt P19490+P19491)", "note": "Protocols differ between the studies behind these lines. Values joined by “and” are separate records of one study, mostly repeats; a detail may differ. Numbers after ± are the reported error."}
{"SMILES": "Cc1cc(-c2ccccc2)cc(C(=O)NNS(=O)(=O)c2ccccc2)c1F", "target or system": "KAT5 (Homo sapiens, UniProt Q92993)", "test": "SPR", "conditions": "1.85 µM", "scale": "higher = more binding", "measurement": "SPR binding response", "result": "0.121 RU"}
{"SMILES": "CN(Cc1ccc(/C=C/C(=O)NO)cc1)CC12CC3CC(CC(C3)C1)C2", "target or system": "human PPARgamma receptor", "test": "agonist radioligand binding", "conditions": "0.05 µM", "measurement": "inhibition", "result": "0%"}
{"SMILES": "CC(C)Oc1cc(Cl)ccc1CNc1cc(-c2ccccc2)nc2ncnn12", "target or system": "GPR3 (Homo sapiens, UniProt P46089, I200W)", "test": "cAMP GloSensor", "test system": "human cells", "conditions": "1 µM", "scale": "higher is more cAMP", "measurement": "cAMP luminescence", "result": "34200 a.u. and 41300 a.u. and 31600 a.u. and 48700 a.u."}
{"SMILES": "COc1ccc(C(=O)OC2CCN(C)CC2)cc1", "target or system": "Trypanosoma cruzi", "test": "reporter mRNA translation, inhibitor, item: Renilla luciferase mRNA", "test system": "cell-free extract", "conditions": "concentration not given, test 1", "scale": "relative to: positive over negative control", "measurement": "translation activity", "result": "99.7%"}
{"SMILES": "O=C1c2sc(-c3ccc(N4CCC(CO)CC4)nc3F)nc2CCN1c1cccnc1", "target or system": "TAR DNA-binding protein 43, aggregated (TARDBP, Homo sapiens, UniProt Q13148)", "test": "binding, surface plasmon resonance", "test system": "brain-derived TDP-43 aggregates", "conditions": "37.5 nM", "measurement": "SPR response", "result": "2.66 RU"}
{"SMILES": "COC1CN([C@H]2CC[C@H]([C@@]3(C)Oc4c(Cl)cc(C(=O)NCc5c(SC)cc(C)[nH]c5=O)c(C)c4O3)CC2)C1", "test": "RNA-seq, item: AGPAT4", "test system": "human, whole blood", "conditions": "dose not given, 24 h", "scale": "relative to: pretreatment baseline", "measurement": "log2 fold change", "result": 1.46}
{"SMILES": "CN(Cc1cc(C2CC2)on1)C(=O)c1cccc(-c2ccc3c(c2)CCO3)c1", "target or system": "Acetyl-coenzyme A synthetase 2 (ACS2, Candida albicans, UniProt Q8NJN3)", "test": "enzyme activity, inhibitor, coupled pyrophosphate", "conditions": "200 nM", "scale": "higher is more activity", "measurement": "reaction rate", "result": "0.00304 a.u."}
{"SMILES": "C#CCOC(=O)[C@@]1(C)C=C(C(=O)OC(C)(C)C)C(=O)CC1", "target or system": "MAPK1 (Homo sapiens, UniProt P28482)", "test": "enzyme activity, D-SENSOR", "conditions": "400 µM, mean of replicates", "measurement": "normalized kinase activity", "result": 0.444}
{"SMILES": "CC(=O)Nc1ccccc1-c1ccc(O)cc1", "target or system": "Uridine nucleoside ribohydrolase (Trichomonas vaginalis, UniProt A2FTT0)", "test": "enzyme activity, 19F NMR", "conditions": "200 µM, 1-fold dilution", "measurement": "inhibition after jump dilution", "result": "100%"}
{"SMILES": "O=C(NCCCCOP(=O)(O)OP(=O)(O)OP(=O)(O)O)OCC1c2ccccc2-c2ccccc21", "target or system": "POLL (Homo sapiens, UniProt Q9UGP5, Y505A)", "test": "substrate, primer extension gel", "conditions": "Y505A mutant, AP-site template", "measurement": "kcat", "result": "6.67e-05 s⁻¹"}
{"SMILES": "COCCOc1cc2ncnc(Nc3cccc(-c4cn(CC(=O)Nc5ccc(S(N)(=O)=O)cc5)nn4)c3)c2cc1OCCOC", "target or system": "CA12 (Homo sapiens, UniProt O43570)", "scale": "relative to: Ki hCA II over Ki hCA XII", "measurement": "selectivity ratio", "result": 1.49}
{"SMILES": "Cc1cc(C(=O)Nc2nc3cccc(C)c3n2[C@H]2CCCCN(C(=O)/C=C/CN(C)C)C2)ccn1", "target or system": "CDC2-like kinase 1 (Trypanosoma brucei brucei, UniProt Q382U0)", "test": "ADP-Glo", "conditions": "1.25 µM", "measurement": "kinase activity", "result": "-2.66% and -3.02%"}
{"SMILES": "CC[C@H]1CN([C@@H](CC)c2ccc(C(F)(F)F)cc2)[C@H](CC)CN1c1nc(=O)n(C)c2ccc(C#N)nc12", "target or system": "Diacylglycerol kinase epsilon (DGKE, Homo sapiens, UniProt P52429)", "test": "inhibitor", "conditions": "concentration not given, type III DGK", "measurement": "kinase activity", "result": "inactive"}
{"SMILES": "C=CC(=O)N1CCCC(n2c(=O)c3ncccc3n(Cc3ccc(Oc4ccccc4)cc3)c2=O)C1 (stereo not shown)", "target or system": "PPIF (Homo sapiens, UniProt P30405)", "test": "thermal proteome profiling", "conditions": "10 µM, destabilized proteins, unit not given", "scale": "relative to: vehicle", "measurement": "melting temperature shift", "result": -4.7}
{"SMILES": "CC1=CC(C)=[N+]2C1=C(CCCCCN1CCC(O)(c3ccc(Cl)cc3)CC1)c1c(C)cc(C)n1[B-]2(F)F", "target or system": "Sodium- and chloride-dependent glycine transporter 2", "test": "MS binding competition", "conditions": "10 µM", "measurement": "remaining specific binding", "result": "15.1 ± 1.8%"}
{"SMILES": "CCN(CC)C(CO)c1cccc2c(C)c(C)oc12 (stereo not shown)", "target or system": "LPAR1 (Homo sapiens, UniProt Q92633, W271F)", "test": "G-protein dissociation, agonist, NanoBiT", "test system": "HEK-293T", "conditions": "1 nM, W271F mutant", "scale": "relative to: baseline luminescence", "measurement": "fold change", "result": "0.974 and 0.79 and 0.91 and 0.929 and 0.97 and 1"}
{"SMILES": "CCN1CCSC1=CC=CC1=[N+](CC)CCS1", "target or system": "Trypanosoma cruzi", "test": "reporter mRNA translation, inhibitor, item: Renilla luciferase mRNA", "test system": "cell-free extract", "conditions": "concentration not given, test 1", "scale": "relative to: positive over negative control", "measurement": "translation activity", "result": "95.9%"}
{"SMILES": "CC1=CC(C)=[N+]2C1=C(CCCCN1CCCC1)c1c(C)cc(C)n1[B-]2(F)F", "target or system": "Sodium- and chloride-dependent glycine transporter 2", "test": "MS binding competition", "conditions": "10 µM", "measurement": "remaining specific binding", "result": "92.3 ± 6.4%"}
{"SMILES": "COc1ccc2c(c1)C1CC(C)(N2)c2c(C)nc3ccc(OC)cc3c21 (stereo not shown)", "target or system": "GAP50", "test": "binding, surface plasmon resonance", "conditions": "1:1 binding model", "measurement": "koff", "result": "0.00757 s⁻¹"}
{"SMILES": "O=C(O)Cc1cc2c(cc1C(=O)c1cccc(Cl)c1)OCO2", "target or system": "Gria1/Gria2", "test": "glutamate-evoked current, whole-cell patch clamp", "test system": "HEK-293T", "conditions": "concentration not given, weighted tau, 1 ms pulse, added: glutamate", "measurement": "deactivation time constant", "result": "9.5 ± 0.5 ms"}
{"SMILES": "CCOC(=O)c1ccc2c(c1)C1CC(C)(N2)c2c(C)nc3ccc(C(=O)OCC)cc3c21 (stereo not shown)", "target or system": "GAP50", "test": "differential scanning fluorimetry", "measurement": "ΔTm", "result": "0 °C"}
{"SMILES": "CCCCCC=CC=C1C(=O)C=CC1CC=CCCCC(=O)O (stereo not shown)", "target or system": "Cytidine deaminase (CDA, Homo sapiens, UniProt P32320)", "test": "competitive isoTOP-ABPP", "test system": "proteome, soluble, MDA-MB-231", "conditions": "100 µM, added: iodoacetamide probe", "scale": "relative to: DMSO over compound-treated, higher = stronger cysteine blockade", "measurement": "isoTOP-ABPP competition ratio", "result": 1.2}
{"SMILES": "CC(C)[C@@H]1NC(=O)[C@H](Cc2ccccc2)NC(=O)CSC[C@@H](C(N)=O)NC(=O)[C@H](CCC(=O)O)NC(=O)[C@H](CO)NC(=O)[C@H](Cc2c[nH]c3cccc(Cl)c23)NC(=O)[C@H](C2CCCCC2)NC(=O)[C@H](C(C)C)NC(=O)[C@H](Cc2ccc(O)cc2)NC(=O)[C@H](CC(=O)O)NC(=O)[C@H](Cc2c[nH]c3ccccc23)NC(=O)[C@H](Cc2ccc(N)nc2)NC(=O)[C@H](Cc2c[nH]c3ccc(Cl)cc23)NC(=O)[C@H](CCC(=O)O)NC1=O", "target or system": "Interleukin-1 receptor-like 2 (IL1RL2, Homo sapiens, UniProt Q9HB29)", "test": "reporter gene (SEAP), inhibitor, HEK-Blue IL-36R reporter", "test system": "HEK-Blue IL-36R cells", "conditions": "0.015 µM, 6 h, added: IL-36β 3 ng/mL", "measurement": "remaining activity", "result": "92.8%"}
{"SMILES": "CC[C@H](C)[C@H](NC(=O)[C@H](CCC(=O)O)NC(=O)[C@H](CO)NC(=O)[C@@H](NC(=O)[C@@H](N)CO)C(C)C)C(=O)N[C@@H](CCC(N)=O)C(=O)N[C@@H](CC(C)C)C(=O)N[C@@H](CCSC)C(=O)N[C@@H](Cc1c[nH]cn1)C(=O)N[C@@H](CC(N)=O)C(=O)N[C@@H](CC(C)C)C(=O)NCC(=O)N[C@@H](CCCCN)C(=O)N[C@@H](Cc1c[nH]cn1)C(=O)N[C@@H](CC(C)C)C(=O)N[C@@H](CC(N)=O)C(=O)N[C@@H](CO)C(=O)N[C@@H](CCSC)C(=O)N[C@@H](CCC(=O)O)C(=O)N[C@@H](CCCNC(=N)N)C(=O)N[C@H](C(=O)N[C@@H](CCC(=O)O)C(=O)N[C@@H](Cc1c[nH]c2ccccc12)C(=O)N[C@@H](CC(C)C)C(=O)N[C@@H](CCCNC(=N)N)C(=O)N[C@@H](CCCCN)C(=O)N[C@@H](CCCCN)C(=O)N[C@@H](CC(C)C)C(=O)N[C@@H](CCC(N)=O)C(=O)N[C@@H](CC(=O)O)C(=O)N[C@H](C(=O)N[C@@H](Cc1c[nH]cn1)C(=O)N[C@@H](CC(N)=O)C(=O)N[C@@H](Cc1ccccc1)C(=O)O)C(C)C)C(C)C", "target or system": "PTH2R (Homo sapiens, UniProt P49190, I38A)", "test": "cAMP accumulation, agonist", "test system": "HEK-293T", "conditions": "40 min, I38A mutant", "scale": "relative to: wild-type receptor", "measurement": "Emax", "result": "108 ± 5.43%"}
{"SMILES": "COC(=O)[C@@]1(C)C=C(C(=O)Nc2cccc(C(=O)Nc3ccc(Nc4nccc(-c5cccnc5)n4)c(C)c3)c2)C(=O)CC1", "target or system": "Mitogen-activated protein kinase 8, docking groove (MAPK8, Homo sapiens, UniProt P45983)", "test": "peptide binding, inhibitor, fluorescence polarization", "conditions": "25 µM, added: JIP1 peptide probe", "measurement": "normalized fluorescence polarization", "result": 0.871}
{"SMILES": "C[C@@H](O)c1ccc(NS(=O)(=O)c2ccc(Cl)c(Cl)c2)cc1", "target or system": "17-beta-hydroxysteroid dehydrogenase 13 (Homo sapiens, UniProt Q7Z5P4)", "test": "substrate, NADH fluorescence", "measurement": "Vmax", "result": "0.07 nM NADH/s/nM enzyme"}
{"SMILES": "OC[C@@H]1[C@@H](O)[C@H](O)[C@@H](O)c2nccn21", "target or system": "bglA (Thermotoga maritima, UniProt Q08638)", "test": "ITC", "conditions": "pH 5.8, 25 °C", "measurement": "ΔG", "result": "-9.919 ± 0.0406 kcal/mol"}
{"SMILES": "COC(=O)Cc1cc2c(cc1C(=O)c1cccc(I)c1)OCO2", "target or system": "Gria1/Gria2", "test": "glutamate-evoked current, whole-cell patch clamp", "test system": "HEK-293T", "conditions": "concentration not given, pH 7.4, holding potential -60 mV, added: 10 mM glutamate", "measurement": "current amplitude", "result": "320 ± 38 pA"}
{"SMILES": "COc1cc2nccc(Nc3ccc(Oc4ccccc4)cc3)c2cc1OC", "target or system": "SMUG1 (Homo sapiens, UniProt Q53HV7)", "test": "enzyme activity, activator, fluorescence", "conditions": "2 µM", "scale": "relative to: control", "measurement": "activity", "result": "110 ± 40%"}
{"SMILES": "COC(=O)Cc1cc2c(cc1C(=O)c1cccc(Br)c1)OCO2", "target or system": "Gria1/Gria2", "test": "glutamate-evoked current, whole-cell patch clamp", "test system": "HEK-293T", "conditions": "concentration not given, weighted tau, 1 ms pulse, added: glutamate", "measurement": "deactivation time constant", "result": "2.9 ± 0.2 ms"}
{"SMILES": "COc1ccccc1-c1ccncc1C(=O)Nc1nnc(OCc2ccc(Cl)cc2)s1", "target or system": "DNA polymerase theta, helicase domain (POLQ, Homo sapiens, UniProt O75417)", "test": "ATPase activity, ADP-Glo", "conditions": "0.48 µM, added: ATP 600 µM", "measurement": "remaining activity", "result": "29%"}
{"note": "A few entries again:"}
{"SMILES": "COc1ccc2c(c1)C1CC(C)(N2)c2c(C)nc3ccc(OC)cc3c21 (stereo not shown)", "target or system": "GAP50", "test": "binding, surface plasmon resonance", "conditions": "1:1 binding model", "measurement": "koff", "result": "0.00757 s⁻¹"}
{"SMILES": "O=C(O)Cc1cc2c(cc1C(=O)c1cccc(Cl)c1)OCO2", "target or system": "Gria1/Gria2", "test": "glutamate-evoked current, whole-cell patch clamp", "test system": "HEK-293T", "conditions": "concentration not given, weighted tau, 1 ms pulse, added: glutamate", "measurement": "deactivation time constant", "result": "9.5 ± 0.5 ms"}
{"SMILES": "CCOC(=O)c1ccc2c(c1)C1CC(C)(N2)c2c(C)nc3ccc(C(=O)OCC)cc3c21 (stereo not shown)", "target or system": "GAP50", "test": "differential scanning fluorimetry", "measurement": "ΔTm", "result": "0 °C"}
